Measured values collected from several papers.
Each line is one published result; not all experiments were run side by side. “And” joins repeats or separate records; there may be more than shown. Numbers after ± are the reported error. In brackets after ≈: the same amount, converted by molar mass.

Cc1ncsc1-c1ccc(C(C)NC(=O)C2CC(O)CN2C(=O)C(NC(=O)CCCCCCCCCCN2CCCC(Nc3ncc(Cl)c(Nc4ccccc4S(=O)(=O)C(C)C)n3)C2)C(C)(C)C)cc1 (stereo not shown)
log2 fold change (22Rv1; RNA-seq, measured: ZNF790 mRNA; concentration not given; reference: DMSO): -1.31

Nc1nc(-c2ccc(Cl)cc2)nc2[nH]nc(Nc3cccc(F)c3)c12
IC50 (rhinovirus B48; viral cytopathic effect; HeLa): 4510 nM

C=C(NC(=O)c1csc(-c2nc3c(cc2O)-c2nc(cs2)C(=O)NC(C(C)O)C(=O)NC(=C(C)OC)c2nc(cs2)C(=O)NC2c4nc(cs4)C(=O)NC(COC(=O)c4c5c6c(cccc6n4O)COC(=O)C(OC4CC(C)(O)C(N(C)C)C(C)O4)C2OC5)c2nc-3cs2)n1)C(N)=O (stereo not shown)
MIC50 (Staphylococcus epidermidis; methicillin-resistant, 10 isolates; serum 25%): 0.0312 µg/mL (≈ 0.0217 µM)

CC1(C)[C@H](NC(=O)/C(=N\OCCN)c2nsc(N)n2)C(=O)N1OS(=O)(=O)O
MIC (Enterobacter aerogenes; agar dilution; ATCC 13048, susceptible): 16 µg/mL (≈ 37.8 µM)

c1ccc(CN2CCOCCOCCN(CCCCCCCCCCN3CCOCCOCCN(CCCCCCCCCCN4CCOCCOCCN(Cc5ccccc5)CCOCCOCC4)CCOCCOCC3)CCOCCOCC2)cc1
fold enhancement (Klebsiella pneumoniae; tetracycline MIC, checkerboard; ATCC BAA-2146; quarter MIC, with: tetracycline; reference: MIC alone over combination): 3 fold

C[C@@H]1C(=O)O[C@@H](C)/C=C/C=C\[C@@H](C)[C@@H]2C=C[C@@H]3C[C@@]4(C)O[C@H]4[C@@H](C)[C@H]3[C@@H]2C(=O)C(Cl)(Cl)C1=O
MIC (Staphylococcus aureus; MSSA clinical isolate; PEN SXT TET resistant): 0.025 µg/mL (≈ 0.0505 µM)

C[n+]1ccc(/C=N/NC(=O)c2cccc(C(=O)N/N=C/c3cc[n+](C)c4ccccc34)c2)c2ccccc21
ΔTm (22CTA telomeric G4-DNA antiparallel; FRET melting; 1 µM, K10 buffer, DNA 0.2 µM, with: ds26 10 µM): 7 ± 0.3 °C

Nc1nc(-c2ccccc2)nc2[nH]nc(Nc3ccc(F)cc3F)c12
IC50 (rhinovirus B48; viral cytopathic effect; HeLa): 50 nM

C[n+]1ccc(/C=N/NC(=O)c2cc(C(=O)N/N=C/c3cc[n+](C)c4ccccc34)ncn2)c2ccccc21
ΔTm (22CTA telomeric G4-DNA antiparallel; FRET melting; 1 µM, K10 buffer, DNA 0.2 µM): 3.7 ± 0.9 °C

Cc1nc(N)c2c(Nc3ccc(F)cc3)n[nH]c2n1
IC50 (rhinovirus B48; viral cytopathic effect; HeLa): 75900 nM

O=C(CC(F)(F)F)Nc1ccc([C@H]2[C@@H](F)[C@@H](F)C[C@@H](F)[C@H]2F)cc1
hepatic clearance (liver microsome stability; dog liver microsomes; 1 µM): 13 mL/min/kg

c1ccc(CN2CCOCCOCCN(CCCCCCCCN3CCOCCOCCN(CCCCCCCCN4CCOCCOCCN(Cc5ccccc5)CCOCCOCC4)CCOCCOCC3)CCOCCOCC2)cc1
fold enhancement (Klebsiella pneumoniae; tetracycline activity; ATCC BAA-2146; 2.5 µM, with: tetracycline; reference: tetracycline alone): 1 fold

CCN(CC)CC#CCNc1ccnc2cc(Cl)ccc12
IC50 (Plasmodium falciparum; parasite growth, SYBR Green I; 3D7; single experiment): 38.1 nM

CNCc1ccc2c(c1)C[C@H](CNC(=N)N)[C@H]2NC(=O)C(=O)Nc1ccc(Cl)c(F)c1
IC80 (Human immunodeficiency virus 1; viral infection, Env pseudovirus; TZM-bl, C2101.c01 CRF01_AE): > 100000 nM

Cc1ccc(Nc2n[nH]c3nc(-c4ccccc4)nc(N)c23)cc1
IC50 (rhinovirus B48; viral cytopathic effect; HeLa): 30 nM

Cc1cccc2c1N(C(=O)n1ccnn1)CC2
germination rate (Arabidopsis thaliana; kai2 mutant; 30 µM): 21.3%

O=C(CN1CCCCC1)Nc1ccc(C2CCCCC2)cc1
hepatic clearance (mouse liver microsomes; 1 µM): 84 mL/min/kg

OB(O)c1ccc(C(F)(F)F)s1
growth (Listeria monocytogenes; 100 µM, 10 h; reference: untreated): 60.2% and 86% and 80.6% and 64.6% and 81.1%

Cc1cc(Cl)cc(S(C)=NC#N)c1NC(=O)c1cc(Br)nn1-c1ncccc1Cl (stereo not shown)
larval survival (Plutella xylostella; Raphanus sativus field; 50 ppm, 72 h, 10% wettable powder): 10.7%

c1ccc(CN2CCOCCOCCN(CCCCCCCCCCCCCCN3CCOCCOCCN(CCCCCCCCCCCCCCN4CCOCCOCCN(Cc5ccccc5)CCOCCOCC4)CCOCCOCC3)CCOCCOCC2)cc1
FIC index (Klebsiella pneumoniae; ATCC BAA-2146; quarter MIC, with: ciprofloxacin): 0.82

CC(=O)OC[C@H]1O[C@@H](Sc2sc(C(=O)c3ccc(C)cc3)c(N)c2-c2nc3ccccc3s2)[C@H](OC(C)=O)[C@@H](OC(C)=O)[C@@H]1OC(C)=O
viral reduction (herpes simplex virus 1; plaque reduction; non-toxic dose NG, mean over three titres): 6.7%

Nc1nc(-c2ccccc2)nc2[nH]nc(Nc3cc(F)c(F)c(F)c3)c12
IC50 (rhinovirus B48; viral cytopathic effect; HeLa): 3090 nM

CCCCNCCO.O=C(O)C(Cl)Cl
inhibition (Solanum nigrum; herbicidal activity; 15 mg/mL, 21 days, pre-emergence greenhouse): 0%

CC(C)(C)NCC(SS(=O)(=O)O)c1ccccc1 (stereo not shown)
mean male worms recovered (Schistosoma mansoni; infected Swiss Webster mice; 100 mg/kg single, dosed day 42, perfusion day 56): 13.5 worms per mouse

CC[C@H](C)CCCCC(=O)N[C@@H](CCN)C(=O)N[C@H](C(=O)N[C@@H](CCN)C(=O)N[C@H]1CCNC(=O)[C@H]([C@@H](C)O)NC(=O)[C@H](CCN)NC(=O)[C@H](CCN)NC(=O)[C@H](CC(C)C)NC(=O)[C@@H](CC(C)C)NC(=O)[C@H](CCN)NC1=O)[C@@H](C)O
bacterial load (Pseudomonas aeruginosa; BAA-2797, BALB/c mouse peritonitis, liver; dose not given): 2.83 log CFU and 2.2 log CFU and 2.45 log CFU and 2.3 log CFU and 2.68 log CFU

Nc1nc(-c2ccc(OC(F)(F)F)cc2)nc2[nH]nc(Nc3ccccc3)c12
IC50 (rhinovirus B48; viral cytopathic effect; HeLa): 6540 nM

FC(F)(F)c1cccc(CNc2nc(NC3CCN(Cc4ccccc4)CC3)c3nc[nH]c3n2)c1
log2 fold change (Cryptococcus neoformans; RNA-seq, measured: CNAG_03262 mRNA; 48 µg/mL, 3 h; reference: untreated wild type): 0.206

O=c1c(-c2nc3ccccc3s2)cc2c(n1NS(=O)(=O)c1ccccc1)CCCCCC2
plaque reduction (herpes simplex virus 1; viral replication, plaque; Vero; non-toxic dose, mean of three titres): 0%

O=C(Nn1c(-c2cccc(Cl)c2)nc2ccccc2c1=O)c1ccccc1
time to motility loss (Fasciola hepatica; adult, ex vivo; concentration not given): ≤ 10 min

Nc1nc(-c2ccccc2)nc2[nH]nc(Nc3ccc(Cl)cc3)c12
IC50 (rhinovirus B48; viral cytopathic effect; HeLa): 30 nM

COC1C=COC2(C)Oc3c(C)c(O)c4c(c3C2=O)C2=NC3(CCN(CC(C)C)CC3)NC2=C(NC(=O)C(C)=CC=CC(C)C(O)C(C)C(O)C(C)C(OC(=O)Nc2cnccn2)C1C)C4=O (stereo not shown)
IC50 (Mycobacteroides abscessus; bacterial growth; subsp. abscessus M9 clinical isolate): 12 nM

A few entries again:
Cc1cc(Cl)cc(S(C)=NC#N)c1NC(=O)c1cc(Br)nn1-c1ncccc1Cl (stereo not shown)
larval survival (Plutella xylostella; Raphanus sativus field; 50 ppm, 72 h, 10% wettable powder): 10.7%

CCCCNCCO.O=C(O)C(Cl)Cl
inhibition (Solanum nigrum; herbicidal activity; 15 mg/mL, 21 days, pre-emergence greenhouse): 0%

c1ccc(CN2CCOCCOCCN(CCCCCCCCCCCCCCN3CCOCCOCCN(CCCCCCCCCCCCCCN4CCOCCOCCN(Cc5ccccc5)CCOCCOCC4)CCOCCOCC3)CCOCCOCC2)cc1
FIC index (Klebsiella pneumoniae; ATCC BAA-2146; quarter MIC, with: ciprofloxacin): 0.82
